Published values from different studies.
Numbered parts are unrelated; each lists some results of a single study.

Sample 1 — method: RNA Bind-n-Seq; molecule type: RNA; matrix: in vitro; concentration: 20 nM; setting: 6-mer, flanks averaged, single round; together with: 150 mM KCl; baseline: input library; reading: higher = stronger binding
Target: TAR DNA-binding protein 43, full length, His tag (TARDBP, Homo sapiens, UniProt Q13148, residues 1-414)
| Oligonucleotide | 6-mer enrichment (R) |
| --- | --- |
| UGUUGU | 0.893 |
| GGGCGA | 3.91 |
| ACCGAC | 0.653 |
| UUAGAG | 0.88 |
| AACGGA | 0.86 |
| UUGCGC | 0.791 |
| UUUCUC | 0.577 |
| CCUCGG | 0.871 |
| CGCUGA | 0.78 |
| CUGUAG | 0.931 |
| CGUCCC | 0.682 |
| AAGGUU | 0.676 |
| UCUUAG | 0.601 |
| GCUAUG | 0.891 |

Sample 2 — method: RNA Bind-n-Seq; molecule type: RNA; matrix: in vitro; concentration: 365 nM; baseline: no-protein control; reading: higher = stronger binding
Target: RNA binding protein fox-1 homolog 2, RRM domain, GST-SBP tag (RBFOX2, Homo sapiens, UniProt O43251-10, residues 100-194)
Setting: natural RNA segment, single round, ends assumed
All sequences stand within: GGGAGUUCUACAGUCCGACGAUC … UGGAAUUCUCGGGUGCCAA
Construct (chain): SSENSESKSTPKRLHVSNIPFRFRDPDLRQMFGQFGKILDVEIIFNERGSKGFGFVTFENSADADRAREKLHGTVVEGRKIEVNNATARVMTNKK
| Oligonucleotide | RBNS enrichment (R) |
| --- | --- |
| UCAAAGAAACCCAGCUAAGUAAGCAACAUAAAGCCUGUUGUGUCAGGUCCUGCAGGUCGAUGUGUGAGUCAGGAAACACUGCAGGGAAAUAGACCUUUCCUUCCGUACCU | 0.571 |
| UGCUGACUGUCAGGAGCAAAACUUGAAGGUGUGGCACCGCAGGACUGGAAGAGAGUGGAACACCUUGGGUCCUGCCUGUUCAGGGUACUGAGGCCAAGAUGAGAAGUGAC | 0.729 |
| GAUGGACCUUUCCCUCCAUGUAGCUUUUCCUCAGAGUCGAUGAGAAGUGAAUGUUGUCUUUGGUCACAAUGCCUUUAAGUGUAGUUGUAGCUCAGAACUUUUUUUUUAGU | 0.534 |
| GUCAGCUUAUUUCUGGGGAAGGUGUUGAGCUCUUAUACAUGAAAAUGGAUAUAGGCUAUUCUCUGGGAUGAGUGUCAUUUCAAUGCUUUAUAAAUCCAUGAAGCUGCUUG | 0.839 |
| CAGCCAUCUGCUCCUGCAGCGUGCAGCUUUGGAUUGUUUGUGCAGAAAACAGCAAGCGAUGGCUGAUAAAUCUUAUCUUGCCAGAGGUAGUUUUUGAACAAGAAAAAGAA | 0.496 |
| AGAAUCUCGACGGGUUGCUAUAAUGGUCUGCACCCCAAGACUUCCAUUACUUACCUAGUCAUUGUGGAACAUGACUAUGGAGAGCAUUGUAUAUUUCUAUCUGGUAGUAA | 0.742 |
| UUAGGGUCCACGCCCAUGUACCUGAAACAUUUGGAAGCCCCAUAAUUGUUCUAGUUAGAAAGGGUUCAGGGCAUGGGGAGAGGAGUGGGAAAUUGAUUAAAGGGGCUGUC | 0.682 |
| GUCCCAAUGUUACCUCAACACCACGAAGCUUAUUUCUAUACUGGAGUUCUUCAGUAUAGAAAGUGGAAGUGGUUUAAAUGGCAUAGUACAUAUACAUAUAUAUAUGGCCU | 0.288 |
| UGCUCUCUCCGCUCUGAGUGGCCCUCGGGGAACCACCUGCUUUCCAUCUGUGGGGUGGGGCGCUCGCUCCGAGUAUGUGUGGCAAGGUGGAGGCCACAAUGCCAAGGUUC | 0.494 |
| AUUUUCUAUAGUAAUCUGUUGUACAUUUUAAGAAGUAAAACUAGGAAUUUAGGAGUGAUGUGUGACAUUUCUGACAUGGAGUUACCAUCCCCACAUGUAUCACAUACUGU | 0.461 |
| UUGCAAAUGCUUUGUGCUUUGACUGUCACCACGAAAAGGAAGAAAUUCAUGUCAGUGAAGAAAUGCAGAAUUUAAACAAAAUCAGCUUGAGUUUGUUUUACCAGAUGCUC | 0.449 |
| CUAUUCUGGCAAAGGCUGAGGUGGGUCAAGAGGGUGAGGCUGGCCAGUUUGAUGGAGAAAAAGUCAAAGACGGACAGUGUGUUAAAGAACUGGAGGUGCCUGUGCACACU | 0.543 |

Sample 3 — method: protein-binding microarray; molecule type: double-stranded DNA, one strand shown; matrix: in vitro; concentration: 2540 nM top; setting: 60-bp whole probe; together with: salmon DNA 0.4 mg/ml; baseline: random background probes; reading: higher = stronger binding; all sequences stand within: GCCTAGCAC … GTCTTGATTCGCTTGACGCTGCTG
Target: Interferon regulatory factor 3, full length, phosphomimetic (IRF3, Homo sapiens, UniProt Q14653, residues 1-427, S386D/S396D/S398D/S402D/T404D/S405D)
Construct (chain): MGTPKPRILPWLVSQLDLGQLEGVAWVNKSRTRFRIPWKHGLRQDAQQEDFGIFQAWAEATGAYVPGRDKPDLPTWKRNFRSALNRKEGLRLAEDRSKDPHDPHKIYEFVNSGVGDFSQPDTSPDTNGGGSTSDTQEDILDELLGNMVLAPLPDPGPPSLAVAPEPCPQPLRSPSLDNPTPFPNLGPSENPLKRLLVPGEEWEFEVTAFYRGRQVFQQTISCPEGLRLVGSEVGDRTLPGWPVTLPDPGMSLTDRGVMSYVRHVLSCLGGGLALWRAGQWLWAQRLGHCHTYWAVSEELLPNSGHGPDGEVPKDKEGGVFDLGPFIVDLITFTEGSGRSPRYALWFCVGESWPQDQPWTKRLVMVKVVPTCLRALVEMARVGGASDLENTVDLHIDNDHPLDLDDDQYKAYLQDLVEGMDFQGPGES
| Oligonucleotide | fitted relative affinity [z-score] |
| --- | --- |
| AACGGTCTCGGTATCGGGACGTGCTAG | 1.74 |
| TTAGATTTCAGACTGGATTGGTGCTAG | 0.665 |
| TCAACACTAGTTTTCATACTGTGCTAG | 1.69 |
| TTAGGACTGGGGTTTCGGGTAGTGCTA | 0.452 |
| TTAGGTACCGGTCTCGGTTAGTGCTAG | 2.4 |
| TTTGATTTCAGTCTCGATTAGTGCTAG | 2.52 |
| TTAGGTTTCGACTCTGGGTTAGTGCTA | 3.15 |
| TTAGAGCTGGGGACTGGATTAGTGCTA | -1.22 |
| TTAGGACTGGACACTGGGTTAGTGCTA | -0.839 |
| TTAGATATCGAGTTTCGATTAGTGCTA | 2.33 |
| CACGGACTGGGACTGGGGACGTGCTAG | -0.87 |

Other studies, line by line
| Substance | target | test | system | conditions | scale | endpoint | result |
| --- | --- | --- | --- | --- | --- | --- | --- |
| PhoQ, residues 284 288 289 292 302 303 SIHLQL | PhoP, residues 12 14 15 18 19 TPLRH (Escherichia coli, UniProt P23836) | Sort-seq, refers to: YFP reporter | E. coli | PhoQ-PhoP variant library, together with: 10 µM Mg2+ | baseline: high Mg2+ state, higher = stronger signaling | fold induction | 6.14 |
